Experimental data collected from several papers.
Target: Dual specificity mitogen-activated protein kinase kinase 1 (MAP2K1, Homo sapiens, UniProt Q02750)
UniProt Q02750, sequence (whole entry, looked up): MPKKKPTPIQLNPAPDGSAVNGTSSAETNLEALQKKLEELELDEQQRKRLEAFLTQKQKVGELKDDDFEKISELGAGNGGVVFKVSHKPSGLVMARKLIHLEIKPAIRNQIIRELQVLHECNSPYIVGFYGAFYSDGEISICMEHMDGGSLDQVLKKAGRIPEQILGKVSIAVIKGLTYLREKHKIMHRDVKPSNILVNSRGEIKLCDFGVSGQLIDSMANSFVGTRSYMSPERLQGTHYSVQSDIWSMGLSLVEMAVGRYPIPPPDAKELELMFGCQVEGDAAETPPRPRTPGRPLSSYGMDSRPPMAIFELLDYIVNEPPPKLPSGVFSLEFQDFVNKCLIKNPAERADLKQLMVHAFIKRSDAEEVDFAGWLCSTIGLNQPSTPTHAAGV

SMILES | test | test system | setting | scale | quantity | value
O=C(N[C@@H]1c2ccccc2C[C@H]1N1CCCC1)c1ccc(-c2ccnc3[nH]ccc23)nc1 | binding, competition with immobilised ligand | – | 3 µM | – | remaining binding | 49%
Nc1ccc(/C=C/C(=O)N2CCc3c(oc4c(-c5ccc(F)cc5)cc(-c5ccc(C(=O)N6CCC(F)(F)CC6)cn5)cc34)C2)cn1 | binding, competition with immobilised ligand | – | 1 µM | – | remaining binding | 79%
CS(C)(=O)=Nc1ccc(-c2ccc(-c3nc4cc(O[C@@H]5CO[C@H]6[C@@H]5OC[C@H]6O)[nH]c4cc3F)cc2)cc1 | enzyme activity, inhibitor | – | 10 µM | – | inhibition | -3%
CN(C)[C@H]1C[C@@]23CC[C@@]4(O2)C(=CC[C@]2(C)[C@@H](c5ccc6ccncc6c5)CC[C@H]24)C=C3[C@@H](O)[C@@H]1O | ATP probe labelling, inhibitor, KiNativ profiling | – | 1 µM | – | inhibition | -23.5%
CCOC(=O)[C@@H]1Cc2c(cc([N+](=O)[O-])cc2[N+](=O)[O-])[C@H](O)[C@]12C(=O)Nc1ccc(Br)cc12 | binding, competition with immobilised ligand | – | 0.1 µM | – | remaining binding | 55%
O=C1NC(=O)c2c1c1cc(F)c[n+]3c1c1c2c2cc(O)ccc2[n]1[Ru-4]312([N]=C=S)[S+]3CC[S+]1CC[S+]2CC3 (stereo not shown) | enzyme activity | – | 100 nM, human enzyme, together with: 10 µM ATP | baseline: untreated | remaining activity | 108%
CC(C)[C@H]1NC(=O)C[C@H]2/C=C/CCSSC[C@@H](NC1=O)C(=O)N[C@H](Cc1cccc3ccccc13)C(=O)NCC(=O)O2 | – | – | 10 µM | – | inhibition | -1.9%
C=CC(=O)Nc1cc(-c2nn(C3CCC(N4CCN(C(C)=O)CC4)CC3)c3ncnc(N)c23)ccc1Oc1ccccc1 (stereo not shown) | inhibitor, KiNativ profiling | biochemical | 2 µM | – | inhibition | 8.7%
C[C@H](NCc1ccc(-c2ccc(C(F)(F)F)cc2)cc1)C(N)=O | cell-free assay, competition with immobilised ligand | – | 1 µM | – | inhibition | 9%
CN(/N=C/c1ccccc1C(=O)O)c1nc(-c2ccccc2Cl)cs1 | enzyme activity, inhibitor | – | 1 µM | – | inhibition | -6.19%

A few entries again:
SMILES | test | test system | setting | scale | quantity | value
Nc1ccc(/C=C/C(=O)N2CCc3c(oc4c(-c5ccc(F)cc5)cc(-c5ccc(C(=O)N6CCC(F)(F)CC6)cn5)cc34)C2)cn1 | binding, competition with immobilised ligand | – | 1 µM | – | remaining binding | 79%
